Results collected from several papers.
Protocols differ between the studies behind these lines. “And” joins repeats or separate records; there may be more than shown. ± gives the spread as reported.
Gria2: Glutamate receptor 2 (Gria2, Rattus norvegicus, UniProt P19491)
Chain of UniProt P19491 (whole entry, looked up): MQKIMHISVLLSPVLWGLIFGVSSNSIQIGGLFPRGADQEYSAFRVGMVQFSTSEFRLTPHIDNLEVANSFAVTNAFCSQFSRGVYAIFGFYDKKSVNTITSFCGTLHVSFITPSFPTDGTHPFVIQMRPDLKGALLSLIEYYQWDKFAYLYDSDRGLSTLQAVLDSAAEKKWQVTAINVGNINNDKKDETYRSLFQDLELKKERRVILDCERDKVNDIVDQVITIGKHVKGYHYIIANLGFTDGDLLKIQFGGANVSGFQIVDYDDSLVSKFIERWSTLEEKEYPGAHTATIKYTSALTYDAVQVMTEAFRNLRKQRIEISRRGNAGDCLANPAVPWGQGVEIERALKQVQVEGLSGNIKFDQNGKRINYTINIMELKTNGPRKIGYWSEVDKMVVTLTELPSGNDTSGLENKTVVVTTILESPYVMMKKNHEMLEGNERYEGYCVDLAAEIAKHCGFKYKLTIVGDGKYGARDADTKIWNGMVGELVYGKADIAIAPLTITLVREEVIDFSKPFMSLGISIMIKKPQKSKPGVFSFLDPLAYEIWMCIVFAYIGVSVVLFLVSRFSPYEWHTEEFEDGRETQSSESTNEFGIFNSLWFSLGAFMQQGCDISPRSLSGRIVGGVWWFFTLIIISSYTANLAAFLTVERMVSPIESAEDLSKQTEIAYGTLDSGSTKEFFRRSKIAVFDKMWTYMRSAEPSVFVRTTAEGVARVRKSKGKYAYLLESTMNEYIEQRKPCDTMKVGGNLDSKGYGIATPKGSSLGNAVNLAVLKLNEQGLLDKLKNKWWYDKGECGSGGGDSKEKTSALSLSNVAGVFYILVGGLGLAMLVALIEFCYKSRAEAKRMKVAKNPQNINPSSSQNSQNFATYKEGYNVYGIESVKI
CASP7: Caspase-7 (CASP7, Homo sapiens, UniProt P55210)
Chain of UniProt P55210 (whole entry, looked up): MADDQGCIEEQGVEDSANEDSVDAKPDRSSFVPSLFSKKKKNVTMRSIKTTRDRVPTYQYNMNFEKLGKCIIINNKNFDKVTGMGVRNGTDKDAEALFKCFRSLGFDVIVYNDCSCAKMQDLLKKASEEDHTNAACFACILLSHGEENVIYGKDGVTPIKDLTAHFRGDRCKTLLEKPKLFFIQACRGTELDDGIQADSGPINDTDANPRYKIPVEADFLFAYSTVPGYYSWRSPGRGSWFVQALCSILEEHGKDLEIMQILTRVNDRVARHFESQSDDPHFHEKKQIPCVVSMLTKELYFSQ
T1: riboswitch RNA yjdF aptamer domain (Bacillus subtilis); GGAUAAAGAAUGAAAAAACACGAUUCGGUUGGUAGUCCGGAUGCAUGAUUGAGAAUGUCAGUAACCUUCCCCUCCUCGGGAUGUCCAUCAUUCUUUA
Chain of UniProt P30531 (whole entry, looked up): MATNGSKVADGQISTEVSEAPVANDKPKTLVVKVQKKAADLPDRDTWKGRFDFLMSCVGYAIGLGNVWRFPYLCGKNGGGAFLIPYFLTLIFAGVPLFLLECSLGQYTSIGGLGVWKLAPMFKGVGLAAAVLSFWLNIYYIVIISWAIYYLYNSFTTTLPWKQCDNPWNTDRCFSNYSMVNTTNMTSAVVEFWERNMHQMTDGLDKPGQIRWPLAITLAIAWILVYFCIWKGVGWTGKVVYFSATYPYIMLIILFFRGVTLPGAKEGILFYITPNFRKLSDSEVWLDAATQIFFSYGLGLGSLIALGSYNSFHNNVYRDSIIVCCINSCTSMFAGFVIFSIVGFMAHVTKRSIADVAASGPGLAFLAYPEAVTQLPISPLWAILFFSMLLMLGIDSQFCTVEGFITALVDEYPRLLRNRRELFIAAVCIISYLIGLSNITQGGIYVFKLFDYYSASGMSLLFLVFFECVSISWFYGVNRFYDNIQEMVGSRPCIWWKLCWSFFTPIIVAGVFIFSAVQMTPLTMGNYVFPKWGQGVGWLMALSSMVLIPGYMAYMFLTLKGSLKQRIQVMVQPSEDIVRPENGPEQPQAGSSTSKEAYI
Chain of UniProt Q9NQR4 (whole entry, looked up): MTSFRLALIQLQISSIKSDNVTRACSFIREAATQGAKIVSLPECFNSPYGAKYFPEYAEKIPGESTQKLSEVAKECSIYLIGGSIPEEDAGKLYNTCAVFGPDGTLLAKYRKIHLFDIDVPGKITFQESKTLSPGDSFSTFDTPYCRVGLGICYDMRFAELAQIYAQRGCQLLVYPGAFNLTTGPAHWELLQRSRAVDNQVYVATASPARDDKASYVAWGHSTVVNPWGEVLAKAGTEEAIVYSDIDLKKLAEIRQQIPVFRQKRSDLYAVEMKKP
Chain of UniProt P46089 (whole entry, looked up): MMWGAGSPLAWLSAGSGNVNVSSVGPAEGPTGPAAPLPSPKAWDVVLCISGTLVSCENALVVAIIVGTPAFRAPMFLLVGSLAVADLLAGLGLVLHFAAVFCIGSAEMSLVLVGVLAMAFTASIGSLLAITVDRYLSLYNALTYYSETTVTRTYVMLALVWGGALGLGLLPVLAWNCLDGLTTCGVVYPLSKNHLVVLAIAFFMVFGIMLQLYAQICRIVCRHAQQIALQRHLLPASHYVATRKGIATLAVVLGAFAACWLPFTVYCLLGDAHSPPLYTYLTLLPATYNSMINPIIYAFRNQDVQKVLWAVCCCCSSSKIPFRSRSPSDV
Chain of UniProt P25814 (whole entry, looked up): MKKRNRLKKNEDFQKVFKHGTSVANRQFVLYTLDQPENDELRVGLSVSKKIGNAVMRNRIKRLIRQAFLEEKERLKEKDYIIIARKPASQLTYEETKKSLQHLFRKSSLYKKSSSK
Chain of UniProt Q9Y3A3 (whole entry, looked up): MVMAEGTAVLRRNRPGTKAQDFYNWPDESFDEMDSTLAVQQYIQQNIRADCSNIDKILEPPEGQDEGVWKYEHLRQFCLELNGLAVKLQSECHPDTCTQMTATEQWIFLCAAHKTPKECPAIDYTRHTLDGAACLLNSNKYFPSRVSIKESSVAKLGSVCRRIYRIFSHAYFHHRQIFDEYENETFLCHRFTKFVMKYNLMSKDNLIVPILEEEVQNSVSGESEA
Chain of UniProt P25999 (whole entry, looked up): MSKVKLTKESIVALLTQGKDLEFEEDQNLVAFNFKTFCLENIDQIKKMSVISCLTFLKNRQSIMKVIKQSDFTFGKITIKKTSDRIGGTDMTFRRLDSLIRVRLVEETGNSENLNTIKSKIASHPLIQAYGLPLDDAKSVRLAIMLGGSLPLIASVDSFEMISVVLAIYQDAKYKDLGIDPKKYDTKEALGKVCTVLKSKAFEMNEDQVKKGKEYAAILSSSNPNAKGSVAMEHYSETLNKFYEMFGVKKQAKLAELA

Compound | target | test | system | conditions | scale | measurement | value
CCC1=C(C)c2cc3[nH]c(cc4nc(cc5c(CC)c(C)c(cc1n2)n5C)C(C)=C4CCC(=O)O)c(CCC(=O)O)c3C | T1, riboswitch RNA yjdF aptamer domain (Bacillus subtilis) | fluorescence titration |  |  |  | Kd | 3.9 µM
COc1ccc(NC(=O)c2cc(-c3ccccc3)n(-c3ccccc3)n2)cc1 | Genome polyprotein, NS2B-NS3 protease (dengue virus type 2, UniProt P29990) | enzyme activity, fluorogenic AMC substrate |  | 50 µM |  | inhibition | 37%
COc1ccc(C(OCCN2CCCC(C(=O)O)C2)(c2ccc(OC)cc2)c2ccc(OC)cc2)cc1 (centres unmarked) | SLC6A1 (Homo sapiens, UniProt P30531) | GABA transport, inhibitor, radioligand uptake | HEK293F transfected | 800 nM, 15 min pre, 45 min uptake, room temperature, with: [3H]-GABA 30 nM, GABA 25 µM | higher = more uptake | [3H]-GABA uptake | 1340 a.u. and 1320 a.u. and 943 a.u. and 4440 a.u. and 897 a.u. and 1020 a.u. and 4270 a.u. and 1050 a.u.
Cc1ccc(-c2n[nH]cc2CNC(=O)C2(C#N)CC2)cc1 | human kinase panel | binding, KINOMEscan |  | 10000 nM, %Ctrl below 1 |  | number of kinases hit | 0
N#CN1CC[C@H](C(=O)Nc2nc3c(s2)CN(C(=O)Cn2cc(COCCOCCOCCOCCNC(=O)CCCC[C@@H]4SC[C@@H]5NC(=O)N[C@@H]54)nn2)CC3)C1 | Omega-amidase NIT2 (NIT2, Homo sapiens, UniProt Q9NQR4) | probe binding, affinity probe, neutravidin pull-down LC-MS/MS | HEK293T, cell lysate | 5 µM, 1 h, single replicate, unit not given | higher = more pulled down | iBAQ abundance | 4.97e+08 and 3.27e+08 and 9.57e+07
COC(=O)Cc1cc2c(cc1C(=O)c1cccc(Br)c1)OCO2 | Gria2 | glutamate-evoked current, whole-cell patch clamp | HEK-293T | concentration not given, weighted tau, 1 ms pulse, with: glutamate |  | deactivation time constant | 2.9 ± 0.1 ms
CN(C)CCCSC(=S)N1CCN(C(=O)/C=C/c2coc3ccccc3c2=O)CC1 | Nucleoprotein (N, Tomato spotted wilt virus, UniProt P25999) | binding, microscale thermophoresis |  | 125 µM | dose series | normalised MST response | 0.382
CC(=O)N1CCC[C@H]1C(=O)N[C@@H](CCC(N)=O)C(=O)N[C@@H](C)C(=O)N[C@@H](CC(=O)O)C(=O)COC(=O)c1c(C)cccc1C | CASP7 | enzyme activity, inhibitor |  |  |  | kinact/KI | 6900 M⁻¹ s⁻¹
O=C(O)Cc1cc2c(cc1C(=O)c1cccc(Br)c1)OCO2 | Gria2 | glutamate-evoked current, whole-cell patch clamp | HEK-293T | concentration not given |  | current amplitude | 239 ± 21 pA
CC(=O)N1CCC[C@H]1C(=O)N[C@H](C(=O)NCC(=O)N[C@@H](CC(=O)O)C(=O)COC(=O)c1c(C)cccc1C)C(C)(C)C | CASP7 | enzyme activity, inhibitor |  |  |  | kinact/KI | 3800 M⁻¹ s⁻¹
CC(=O)Oc1cc(-c2coc3cc(OC(C)=O)c(OC(C)=O)c(OC(C)=O)c3c2=O)cc(OC(C)=O)c1OC(C)=O | Ribonuclease P protein component (rnpA, Bacillus subtilis, UniProt P25814) | inhibitor |  | mixed cooperativity model, with: Fl-pre-tRNA Asp |  | Hill coefficient | 1.4 ± 0.1
CC(C)Oc1cc(Cl)ccc1CNc1cc(-c2ccccc2)nc2ncnn12 | GPR3 (Homo sapiens, UniProt P46089) | cAMP reporter | human cells | 100 pM | higher is more cAMP | cAMP luminescence | 43800 a.u. and 70500 a.u. and 62700 a.u. and 31300 a.u. and 49200 a.u. and 31800 a.u. and 32700 a.u. and 35700 a.u.
CCCCCC(O)/C=C/C=O (centres unmarked) | MOB4 (Homo sapiens, UniProt Q9Y3A3) | competitive isoTOP-ABPP | Ramos soluble proteome | 100 µM, 60 min, with: iodoacetamide probe | relative to: DMSO over compound-treated, higher = stronger cysteine blockade | isoTOP-ABPP competition ratio | 1.1
COc1ccccc1-c1ccncc1C(=O)Nc1nnc(OCc2ccc(Cl)cc2)s1 | DNA polymerase theta, helicase domain (POLQ, Homo sapiens, UniProt O75417) | ATPase activity, ADP-Glo |  | 0.03 µM, with: ATP 400 µM |  | remaining activity | 55%

Excerpt of the above:
Compound | target | test | system | conditions | scale | measurement | value
COc1ccccc1-c1ccncc1C(=O)Nc1nnc(OCc2ccc(Cl)cc2)s1 | DNA polymerase theta, helicase domain (POLQ, Homo sapiens, UniProt O75417) | ATPase activity, ADP-Glo |  | 0.03 µM, with: ATP 400 µM |  | remaining activity | 55%
